Measured values collected from several papers.
Every numbered part comes from another study and shows a few of its results, in no order. Changes are numbered by the printed parent chain.

Study 1 — method: RNA Bind-n-Seq; form: RNA; sample: in vitro; tested at: not given; baseline: input RNA pool; direction: higher = stronger binding; quantity: bound/input enrichment
Target: RING finger protein unkempt homolog, zinc fingers 1-6, GST-SBP tag (UNK, Homo sapiens, UniProt Q9C0B0, residues 30-357)
Setting: RNA with constant flanks, human and mouse sites, ends assumed
Shared flanks, not repeated: GGGAGUUCUACAGUCCGACGAUC … CAACAGAGGAUUGAGCAUCA
Target sequence (chain): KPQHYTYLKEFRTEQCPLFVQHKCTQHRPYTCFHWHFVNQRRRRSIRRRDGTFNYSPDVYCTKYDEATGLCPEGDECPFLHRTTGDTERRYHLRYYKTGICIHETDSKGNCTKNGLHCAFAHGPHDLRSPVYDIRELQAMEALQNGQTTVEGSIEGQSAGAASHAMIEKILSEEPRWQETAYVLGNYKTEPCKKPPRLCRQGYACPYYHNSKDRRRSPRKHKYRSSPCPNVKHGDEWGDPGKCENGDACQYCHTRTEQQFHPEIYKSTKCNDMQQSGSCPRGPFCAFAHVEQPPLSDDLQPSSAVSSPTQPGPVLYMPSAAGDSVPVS
ACCACCCACACCACCCUGGAGCACUCUGAUUGUGCCUUCAUGGUAGACAAUGAGGCCAUCUAUGAUAUCUGUCGUAGAAACCUCGACAUUGAGCGCCCAACCUACACUAACCUAAACAGG: 0.155 ratio
UUUGAAGUAAAGACCAUACAUGGGAGCAAGUCAGUGGACUCUGGGAUCUAUCUGGACAGUAGUUACAAAAUGGAUUAUCCUGAAAUGGGCAUAUGCAUAAUAAUUAAUAAUAAGAACUUC: 0.661 ratio
AGGUUAAAGAGAAAUGACUUUUUAGGAACUAGACUUGAACGUAUAAUUAAUAUGUGGAACUAGUUUGCUUUUAUAAUUCAUUGUAUCAAGAAGGAGUCAUGUUUUAAAUCCAAGGCAUUG: 0.882 ratio
GAAGAUUUAUAUUUGCAAAGAGUAGCCGAACUGGACAAAAUUACUUCUGAAAGAGAUAAUUUUAGACAAGCAUAUGAAGAUCUUCGAAAACAAAGGCUGAAUGAAUUUAUGGCUGGUUUU: 0.798 ratio
UCAAUAGAAGAGGAAAGGAAUGUCCCAUUGGCAACUGACUUGAUCCGAAUAAGUCAAUAUAGGUUUACGGUUUCAGACUUGAUGAGAAUGGAAAAGAUUGUAUUGGAGAAGGUGUGUUGG: 0.4 ratio
AUUAUUCAGGUUGAUAAAGCCUAUGACUACCUCGUUCAGAAUACAUCAUUUGCUAAUAAAUUAGGUUUUACUGUUACUGUUGGAAAUAACCGUGGCAUCUACCUCCGAGAUCCUGUUCAG: 0.924 ratio
GAUGUCUGCGUGUUUGCAGCCCAAGAAGAUCUAGAGACCAUGCAAGCAUUUGCUCAGGUUUUUAACAAGUUAAUCAGGCGCUACAAAUACCUGGAGAAAGGUUUUGAAGAUGAAGUAAAA: 0.146 ratio
AGCAGAUGCCCUCUUGCAGGGUGGAUGAGUCAGGCAGGCAGAACCUCCUUAAGUGGUCCACUUAGUGUUACCAGCAGACUGCAGACACUGCAGAGCAGGAACCUCACUCAGUACCUGUCU: 0.0475 ratio

Study 2 — target: CCNA1, cyclin fold, Cln2 fusion (human); method: yeast growth competition, sequencing; sample: yeast; setting: weak parent motif; baseline: not given; direction: higher = stronger binding; quantity: normalised enrichment score
Starting sequence: CDC25A docking peptide (human); PPHRRRLLFACSP
P13T: 0.348
R6N: 0.375
L8E: 0.383
R6A: 0.26
P13D: 0.612
P2D: 0.154
S12T: 0.0966
F9T: 0.478
P1L: 0.292
P13L: 0.237
L8D: 0.354
L8P: 0.173
L8Y: 0.335
P1M: 0.287
S12K: 0.173
P2R: 0.435
R4D: 0.328
C11Q: 0.919
R4P: 0.135
L7F: 0.235
P2K: 0.271
R5V: 0.448
P1W: 0.288
R5D: 0.101
R6S: 0.312

Study 3 — method: DHFR PCA, deep sequencing; sample: yeast; added: (+)-ABA 0 µM; baseline: wild-type fitted maximum; direction: higher = stronger binding; quantity: relative binding score
Target: ABI1, truncated, D143A, DHFR fusion (Arabidopsis thaliana)
Setting: methotrexate growth selection, single substitutions
Starting sequence: PYL1, truncated, DHFR fusion (Arabidopsis thaliana); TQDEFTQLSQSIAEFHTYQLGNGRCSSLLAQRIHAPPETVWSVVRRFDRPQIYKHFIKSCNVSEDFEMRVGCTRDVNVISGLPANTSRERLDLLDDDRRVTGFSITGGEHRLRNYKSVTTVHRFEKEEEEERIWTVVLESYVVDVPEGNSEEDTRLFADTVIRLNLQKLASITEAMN; partner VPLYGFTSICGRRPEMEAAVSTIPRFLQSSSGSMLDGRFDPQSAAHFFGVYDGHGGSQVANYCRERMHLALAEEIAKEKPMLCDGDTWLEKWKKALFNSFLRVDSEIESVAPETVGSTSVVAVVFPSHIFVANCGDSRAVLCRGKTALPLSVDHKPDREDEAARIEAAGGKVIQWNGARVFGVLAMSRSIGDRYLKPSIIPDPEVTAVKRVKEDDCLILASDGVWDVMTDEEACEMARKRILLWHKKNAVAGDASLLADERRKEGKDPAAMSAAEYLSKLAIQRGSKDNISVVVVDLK
G148T: -1.61%
F157S: 1.41%
L20Q: 28.5%
E128S: 30.8%
Q167E: 36.6%
E130D: 30.6%
C60I: 7.33%
T173I: 0.161%
P83S: 25.5%
T160V: -2.12%
P37F: 0.619%
S26P: -2.12%
S27W: 0.421%
L94M: 10.2%
G23H: 11.5%
T73S: 2.15%

Study 4 — method: RNA Bind-n-Seq; form: RNA; sample: in vitro; tested at: 365 nM; baseline: no-protein control; direction: higher = stronger binding; quantity: RBNS enrichment (R)
Target: RNA binding protein fox-1 homolog 2, RRM domain, GST-SBP tag (RBFOX2, Homo sapiens, UniProt O43251-10, residues 100-194)
Setting: natural RNA segment, single round, ends assumed
Shared flanks, not repeated: GGGAGUUCUACAGUCCGACGAUC … UGGAAUUCUCGGGUGCCAA
Residues (chain): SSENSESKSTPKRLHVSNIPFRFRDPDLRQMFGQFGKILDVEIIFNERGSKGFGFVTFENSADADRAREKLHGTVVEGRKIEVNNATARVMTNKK
UUAGGGUGCUAUGGAAAUAAUGAAAAGAAACGGGGAUUUCAGAAGAAAAUUGUAACCAAAUUCAUACUUUGUAUAAUUUUUGAUAUCAUGAUCACAGGUGAUUCACACGU: 0.803
ACUUUUUUCAAAGGCAAAUUUAAACUAUUUAAGAAAUAGCUCCUAAUACUUGGGAUCUUGUUUAGAGAAUCCACUUUCUGGAAGUUCUCAGCAUAAUUAGUGUUGAGAGU: 0.481
CCUCUCCAAGCAGUCAAGCCCUCUUGCAAAUUCAGCCACUGCUUUGAGCCCAAAACGGGAAUAUUAGUUUUAUGUCGGAGGUGUGUUCCAAGUUUGUCAAUGAGGCUAUA: 1.19
AGCCAGAGUUCUGGGAGACAACGCUGGGUCUUAUUCUGGGACCAAAGUGAGAAUUCAAGCACAUUUCUUUCCUUUGCUAUGUAGGGAGGCUGCUGCCUUCCCAGAGCCUG: 0.609
CACCAUCUAGCGGCCGCUCGAGGGAAGCACCCGCCGGUUGGCCGAAGUCCACGAAGCCGCCCUCUGCUAGGGAAAACCCCUGGUUCUCCAUGCCACACCUCUCUCCAGGU: 0.528
AAAGUACUGUAGUUUACAGGUAGGCCUUGAAAUAUCUUUUUUAGGAUCUGUUAGGAAUAAGAUUGAUAUUGUAUUGUGUGUAACCUGCACAAUGUGGAAAGCUGAUAUAC: 1.35
GAUUCCCCUCAUCCGAACUGCUGUGUCCAACCUCCAUUGAAGAGCCUUUUCUCCCUCCCUCUCCCUCUGCAAGCCAAGCUGCAUGCACCCAUGCAUGAGUGGUUCUUGCA: 11.1
UUUUAAUUGCCCUUGGUAUCCUGAUAUUCUCAUUUUCAAGGUGAGGUAAAGACAGGGUUUCCUUACUUAACGGAUUUGAGCGCUUCUGUUCUCCAAACACAAUGGAAUUU: 0.31

Mixed results
PhoQ, residues 284 288 289 292 302 303 AMDMFI — fold induction (PhoP, residues 12 14 15 18 19 IFFTR (Escherichia coli, UniProt P23836); Sort-seq, refers to: YFP reporter; E. coli; PhoQ-PhoP variant library, added: 10 µM Mg2+; baseline: high Mg2+ state, higher = stronger signaling): 0.425

Repeated from above (study 2):
R6N: 0.375
P13T: 0.348
L8Y: 0.335
R4D: 0.328
R5V: 0.448
L8P: 0.173
